# Assay results collected from several papers.
# “And” joins repeats or separate records; there may be more than shown. ± marks the error that the study gave.
# Cell line: A549
SMILES,observed,technique,time,notes,IC50
CCn1nc(Cl)c2c1-c1cnc(N)c(c1)O[C@H](C)c1cc(F)ccc1-c1nn(C)cc1C2,cell growth or viability,,,,> 9.57 µM
O=C1CS/C(=N\N=C\c2cccc3cc4ccccc4nc23)N1c1ccc(F)cc1,cell growth or viability,MTT,48 h,,26.7 µM
CCCc1cc2cc(-n3nc(CCC)c4c3CC(C)(C)CC4=O)cc(N3CCC(O)CC3)c2c(=O)[nH]1,cell growth or viability,MTS,,,8.28 µM
O=C1C(Br)=C(Br)C(=O)c2ccccc21,cell growth or viability,MTT,,,66.2 µM
O=C(NCc1cc(F)cc(F)c1)[C@@]1(O)CCN(c2ccc3[nH]ccc3c2)C1=O,colony formation,,,,0.074 µM
CNC(=O)C1CCCN(C(=O)C2CC3CCC2N3C(=O)[C@@H]2C[C@@H](O)CN2C(=O)NCc2cccc(Cl)c2F)C1 (mixture of isomers),cell growth or viability,CCK-8,72 h,,0.12 µM
CN1C(=O)CS/C1=N\N=C\c1cccc2cc3ccccc3nc12,cell growth or viability,MTT,48 h,,36.6 µM
C=CC(=O)N1CCc2ccc(-n3c(=O)ccc4cnc5ccc(-c6cnn(C)c6)cc5c43)cc21,cell growth or viability,,,,2.73 µM
Cc1ccc(C(C)C)cc1.Cc1ccc(C(C)C)cc1.Cc1ccc(C(C)C)cc1.Cc1ccc(C(C)C)cc1.O=S(=O)(O)C(F)(F)F.O=S(=O)(O)C(F)(F)F.O=S(=O)(O)C(F)(F)F.O=S(=O)(O)C(F)(F)F.c1ccc2c3c4ccccc4c(c2c1)-c1cn(nn1)-c1cc[n+](cc1)[Ru-]1[O]c2c4ccccc4c4c5c(c6ccccc6c(c25)=[O+]1)=[O+][Ru-]([O]4)[n+]1ccc(cc1)-n1cc(nn1)-c1c2ccccc2c(c2ccccc12)-c1cn(nn1)-c1cc[n+](cc1)[Ru-]1[O]c2c4ccccc4c4c5c(c6ccccc6c(c25)=[O+]1)=[O+][Ru-]([O]4)[n+]1ccc(cc1)-n1cc-3nn1,cell growth or viability,MTT,24 h,,7.5 µM
COc1ccc(N2C(=O)CS/C2=N\N=C\c2cccc3cc4ccccc4nc23)cc1,cell growth or viability,MTT,48 h,,39.5 µM
C=CC(=O)N1CC2C(=O)N(CCN(C)C)c3c(c4cc(Cl)c(-c5c(O)cccc5F)nc4n(-c4c(C)ccnc4C(C)C)c3=O)N2CC1C (stereo not shown),cell growth or viability,,,,> 10 µM
CCCC[N+]1=c2cc3c4cc2[O][Mn-2]1(=[C]=O)(=[C]=O)(=[C]=O)[n+]1ccc(cc1)C(=O)NCCNC(=O)c1cc[n+](cc1)[Mn-2](=[C]=O)(=[C]=O)(=[C]=O)([O]3)[N+]=4CCCC,cell growth,MTT,48 h,LED light photolysis 1 h,2.89 ± 0.12 µM
CCCc1cc2cc(-n3nc(C(F)(F)F)c4c3CC(C)(C)CC4=O)cc(N3CCC(O)CC3)c2c(=O)[nH]1,cell growth or viability,MTS,,,4.69 µM
COc1c(C)c(OC(=O)c2ccc3ccccc3c2)c(C)c(O)c1C(=O)/C=C/c1ccccc1,cell growth or viability,SRB,72 h,,> 50 µM
CCCCCCCC(=O)[O][Pt]([Cl])([Cl])[O]C(=O)CCCCCCC.N.N,cell growth or viability,MTT,,,~0.05 µM and 0.05 µM
CCCCn1cnc2ccc(-c3ccc(NC(=O)CC)nc3)cc2c1=O,cell growth or viability,CCK-8,72 h,,1.98 µM
Cc1ccccc1/C=C/C(=O)N[C@@H](CO)C(=O)N[C@H](C(=O)N[C@H](Cc1ccccc1)C(=O)O)[C@@H](C)O,,,,,> 20 µM
CCCCCCCCCCCC(=O)Oc1c(C)c(OC)c2c(/C=C/c3ccccc3)c(CCCCCCCCCC)c(=O)oc2c1C,cell growth or viability,SRB,72 h,,> 50 µM
NC(=O)c1ccc(-c2ccccc2Cl)c2c3c([nH]c12)CC[C@H](N)C3,cell growth or viability,,,,0.0448 µM
CCOC(=O)/C=C1\S/C(=N\N=C\c2cccc3cc4ccccc4nc23)N(c2ccc(F)cc2)C1=O,cell growth or viability,MTT,48 h,,> 50 µM
CC(C)[C@@H]1NC(=O)[C@@H](CCCNC(=N)N)NC(=O)[C@H]([C@@H](C)O)NC(=O)[C@@H](CCCN)NC(=O)[C@H](Cc2ccccc2)NC(=O)[C@@H](Cc2ccc(F)cc2)NC1=O,cell growth or viability,ATP luminescence,,,> 100 µM
Oc1ccc(C#Cc2cccc3c2C(c2ccc(O)cc2)(c2ccc(O)cc2)c2cc(O)ccc2-3)cc1,cell growth or viability,MTT,48 h,,13.2 µM
Cc1nc(N(C)c2ccc3c(c2)/C(=C/c2ccccc2C)C(=O)N3C)c2ccccc2n1,cell growth or viability,MTT,,,5.84 µM
CCCc1cc2cc(-n3c4c(c5ccccc53)C(=O)CC(C)(C)C4)cc(N3CCC(O)CC3)c2c(=O)[nH]1,cell growth or viability,MTS,,,4.21 µM
CC(=O)NCCOCCNC(=O)c1cc(C(=O)N2CCNCCNCCNCC2)c(O)c(C(=O)N2CCNCCNCCNCC2)c1,cell growth or viability,MTT,24 h,,> 1000 µM
CN1CCC(N[C@@H]2CCc3[nH]c4c(C(N)=O)ccc(-c5ccccc5Cl)c4c3C2)CC1,cell growth or viability,,,,0.0364 µM
COc1ccccc1/C=C1\C(=O)Nc2ccc(Nc3nc(C)nc4ccccc34)cc21,cell growth or viability,MTT,,,2.27 µM
CC(C)=CC1OC(C)(C)C2C=C3C(=O)C(Cl)=CC(O)C3C3C(O)C4OC4C(=O)C132 (stereo not shown),cell growth or viability,MTS,,,3.66 µM
O=C(NCCOCCOCCNC(=O)c1cc2ccccc2c2ccccc12)c1cc(C(=O)N2CCNCCNCCNCC2)c(O)c(C(=O)N2CCNCCNCCNCC2)c1,cell growth or viability,MTT,24 h,,> 1000 µM
CO[C@@H](C[C@H]1C(C)=CC[C@@H]2[C@]3(C)C[C@H](O[C@@H]4O[C@@H](C)[C@H](O)[C@@H](O)[C@H]4O)[C@@H](O)C(C)(C)[C@H]3CC[C@]21C)[C@H](N)C(=O)O,cell growth or viability,CCK-8,72 h,,> 10 µM
CCCCCCCCCC(=O)Oc1c(C)c(OC)c2c(c1C)OC(=O)C(CCCCCCCC)C2(O)C=Cc1ccccc1 (stereo not shown),cell growth or viability,SRB,72 h,,> 50 µM
CCCc1cc2cc(-n3nc(C4CC4)c4c3CC(C)(C)CC4=O)cc(N3CCC(O)CC3)c2c(=O)[nH]1,cell growth or viability,MTS,,,10.1 µM
O=[C]=[Mn-2]12(=[C]=O)(=[C]=O)[O]c3cc4c(cc3=[N+]1CCc1ccccc1)[O][Mn-2](=[C]=O)(=[C]=O)(=[C]=O)([N+]=4CCc1ccccc1)[n+]1ccc(cc1)C(=O)Oc1ccccc1OC(=O)c1cc[n+]2cc1,cell growth,MTT,48 h,LED light photolysis 1 h,2.29 ± 0.46 µM
CC(C)OC(=O)[C@H](CO)NCc1cc(Cl)c(OCc2cccc(-c3ccccc3)c2Br)cc1OCc1cccnc1,cell growth or viability,MTT,,,> 10 µM
